Assay results collected from several papers.
Protocols differ between the studies behind these lines. Several values in a cell are separate wells, animals, samples, runs or records. ± gives the spread as reported.

`CC(C)NCC(O)c1ccc(O)c(O)c1` (centres unmarked) has a sarcomere length of 1.8 µm (mouse ventricular cardiomyocytes; dose not given, 0.295 s).
For `CSCC[C@H](NC(=O)[C@H](Cc1ccc(OS(=O)(=O)O)cc1)NC(=O)[C@@H](N)CC(=O)O)C(=O)NCC(=O)N[C@@H](Cc1c[nH]c2ccccc12)C(=O)N[C@@H](CCSC)C(=O)N[C@@H](CC(=O)O)C(=O)N[C@@H](Cc1ccccc1)C(N)=O`, the cAMP accumulation was 0.226 a.u. (HEK293T control virus; agonist, GloSensor cAMP; 3.2 nM, no receptor expressed; higher = more cAMP).
For `Cn1cc(-c2ccc(-c3cncc(Cl)c3N3CCC4(CCNC4=O)CC3)cc2)cn1`, “log2 fold change” read 1.27 (COLO 205; gene expression, microarray, measured: NFATC2 mRNA; concentration not given, 6 h; baseline: untreated cells).
`C[C@]12CCCN1CC1=NNC(=O)c3cc(F)cc4[nH]c2c1c34` gave an EC50 of 0.2 µM (OUMS-23; with: temozolomide).
With `CCn1cc(-c2cc(Cn3ccnc3)cc3c2CCN([C@H](c2cc(OC)ccn2)C2CC2)C3=O)c(C(F)(F)F)n1` the EC50 was 29.6 µM (ZR-75-1; cell growth, inhibitor; 120 h).
Under “log2 fold change”, `Cc1cc(Nc2ncc(Cl)c(Nc3ccccc3S(=O)(=O)C(C)C)n2)c(OC(C)C)cc1C1CCNCC1` is recorded as -2.35 (CLB-BAR; phosphoproteomics LC-MS/MS, measured: HELZ phosphorylation; 200 nM, 60 min; baseline: untreated).
For `C=CC(=O)Nc1cc(Nc2nccc(-c3cn(C)c4ccccc34)n2)c(OC)cc1N(C)CCN(C)C`, “MAPK1 mRNA level” read about 1.5 fold (PC-9; qRT-PCR; 8 µM, 24 h; baseline: untreated).
`COc1cnc2cccc(N3CCc4c(cc(Cn5ccnc5C)cc4-c4cn(C)nc4C(F)(F)F)C3=O)c2c1` gave an EC50 of 7.8 µM (JVM-2; cell growth, inhibitor; 120 h).
For `N#CSc1cc(SC#N)c(N)nc1N`, the inhibition was 88.7% (BT-16; cell viability, MTT; 10 µM, 72 h).
With `COc1cc(-c2cnc(C)n2C)ccc1Nc1ncc2ccnc(NCC(C)(C)C)c2n1` the GI50 was 0.012 µM (CAL-51; cell growth; 72 h).
With `O=C([O-])c1ccccc1O.[Na+]` the osteoclastogenesis was 43.9% (mouse bone marrow macrophages; 3 mM, with: RANKL and, tet-CR4-WHD; baseline: RANKL alone).
`Cc1nn(-c2nc3c(F)cc(F)cc3s2)c(O)c1C(c1ccc(C(F)(F)F)cc1)c1c(C)nn(-c2nc3c(F)cc(F)cc3s2)c1O` — result for “phospho-IRF3 to IRF3 ratio”: 0.512 and 0.959 and 0.708 (RAW-ISG; western blot; 5 µM, with: HT-DNA; baseline: DMSO).
`Cc1ccc(C(=O)N(CCCN)[C@@H](c2nc3cc(Cl)ccc3c(=O)n2Cc2ccccc2)C(C)C)cc1` has an inhibition of 94.9% (BT-16; cell viability, MTT; 10 µM, 72 h).
`CCc1cnc(N2CCC(c3nc(COc4ccc(-n5cnnn5)cc4)cs3)CC2)nc1`: “normalized enrichment score” 0.763 (HEK-293T; RNA-seq GSEA, measured: HALLMARK_PEROXISOME; concentration not given; direction not given).
`COc1cccc2c1C(=O)c1c(O)c3c(c(O)c1C2=O)C[C@@](O)(C(C)=O)C[C@@H]3O[C@H]1C[C@H](N)[C@H](O)[C@H](C)O1` has an inhibition of 89.2% (BT-16; cell viability, MTT; 10 µM, 72 h).
`CCCCc1nc(Cl)c(CO)n1Cc1ccc(-c2ccccc2-c2nn[nH]n2)cc1` — result for “log2 fold change”: 1.83 (human PBMC; RNA-seq, measured: PTGS2 mRNA; 10 µg/mL, 24 h; baseline: untreated control).
`COc1cc2ncnc(Nc3ccc(Oc4ccccc4)c(C)c3C)c2cc1OC` has a viability of 84.8% (MeWo (NF1 mutant); resazurin; 3 µM, 72 h, with: trametinib; baseline: DMSO).
`CC/C(=N\NC(=O)C(C)Nc1ccccc1)c1ccc(O)c(C)c1O` (centres unmarked) has a protein level of 1.82 ± 0.93 (SK-OV-3; Western blot, measured: TAZ; 10 µM, 3 h, 2D culture, unit not given; baseline: β-actin).
`CCCCc1nc2cc(/C=C/C(=O)NO)ccc2n1CCN(CC)CC` gave an inhibition of 87.7% (BT-16; cell viability, MTT; 10 µM, 72 h).
`Cc1cccc(-c2[nH]c(CNc3ccccc3F)nc2-c2ccc3ncnn3c2)n1` has a viability of 13% and 18% (MM1.S pomalidomide-resistant; XTT; 3.5 µM).

Some of these lines once more:
`CCCCc1nc(Cl)c(CO)n1Cc1ccc(-c2ccccc2-c2nn[nH]n2)cc1` — result for “log2 fold change”: 1.83 (human PBMC; RNA-seq, measured: PTGS2 mRNA; 10 µg/mL, 24 h; baseline: untreated control).
